Measurements from different studies.
Parts stem from different laboratories: compare values within a part only. Positions count from the first letter of the parent shown.

Sample 1 — method: RNA Bind-n-Seq; form: RNA; medium: in vitro; tested at: not given; baseline: input RNA pool; direction: higher = stronger binding; quantity: bound/input enrichment
Target: RING finger protein unkempt homolog, zinc fingers 1-6, GST-SBP tag (UNK, Homo sapiens, UniProt Q9C0B0, residues 30-357)
UniProt Q9C0B0, sequence (30-357, looked up): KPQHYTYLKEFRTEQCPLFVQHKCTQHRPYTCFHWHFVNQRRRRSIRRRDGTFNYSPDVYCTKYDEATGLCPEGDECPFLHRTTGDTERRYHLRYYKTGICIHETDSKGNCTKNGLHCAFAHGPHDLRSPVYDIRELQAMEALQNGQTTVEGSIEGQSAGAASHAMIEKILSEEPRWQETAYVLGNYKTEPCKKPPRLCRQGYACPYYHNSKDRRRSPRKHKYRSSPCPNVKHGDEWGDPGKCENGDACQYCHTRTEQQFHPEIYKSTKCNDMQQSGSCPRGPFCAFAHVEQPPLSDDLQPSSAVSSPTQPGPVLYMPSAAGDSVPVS
Notes: RNA with constant flanks, human-mouse chimeric sites, ends assumed
All sequences stand within: GGGAGUUCUACAGUCCGACGAUC … CAACAGAGGAUUGAGCAUCA
GCUCUUGGGAAUGUAAUAAGUGCCUUGGGGGACAAGAGCAAGAGAGCCACCCAUGUCCCUUACAGAGACUCUAAGCUGACAAGACUCUUGCAGGAUUCCCUCGGGGGUAACAGCCAAACC: 0.155 ratio
AGAAUCUUGGGACUGUUUUACUUAAUUGGUCAUUGAUAGCUUAACAAACAUGGAGAUGAGAUUAGAAAUCUUGACAUCAACAGGUAUCAAGCAGAAAAAACCAUGGCCACGUGUCUCCUG: 0.125 ratio
UCUUAACUUAUUCAUUUAACUUAUUUUUAUAGCUAGAGCAAUAUUGUUAGUCUUAGACAAUAGCUCACAUCUUUACAGAAGCAUGCCCUCCCUGUCCAUUUGUCUUAUAACAUGACCCAG: 64.3 ratio
UCUGGUCACACUCGUGUAUAUGGUGUGUGCUUUGUGGACACUUCACUGGGCAAGUUUUUCAUAGGUCAGUUUUCGGAUGACCGCCACUGUUCCAGAUUUAGGACGCUAGUGGCUCACUAU: 0.273 ratio
GUUCGGCUCUGGGAUCAUGCUACUAUGACAGAAGUGAAAUCUCUGAAUUUUAAUAUGUCUGUUAGCAGCAUGGAGUAUAUUCCUGAAGGAGAGAUUUUGGUUAUUACUUAUGGACGAUCU: 0.318 ratio
CACAGAGGAGAUCUGCUGUUCCUCACAAAUUUCCGGGAAGACCCAAUCAGAGCUGGUGAAAUAGUUGUUUUUAAGGUUGAAGGAAGAGACAUUCCGAUAGUUCACAGAGUAAUCAAGGUU: 1.33 ratio
GCACUUCUCAAAUACUGGCCAAAGACUCACAGUCCAAAAGAAGUAAUGUUCUUAAAUGAAUUAGAAGAGAUUUUAGAUGUAAUUGAACCAUCAGAAUUUGUGAAGAUCAUGGAGCCUCUU: 0.46 ratio
ACUCUUGACUCUUUCCAUCCUCUUCCUUUUCCUCUUGAUAUUCAAGGCCAUGAAUCCCAAAAUAACAGUCUUAGUGGCUAGCACCCAAACAGAGGUGGAAUAAAUCCAAACUGACAACUC: 0.554 ratio
GGCUGCUGGUGACUGUCCUGGAGUGGCUGGAGUUCCCGCCGGAGCGCGGCCAGACUAAUUAUAGAAAAUGCCAAGUAGGAAGUUUGUUGAGGGUGAAGUGGUAAGAGGCCGAUGGCCUGG: 5.87 ratio
UCAGGAACCCAGACAAACAUGAAUGUAAAUGAAGUCAUUAGCAAUAGAGCAAUUGAAAUGUUAGGAGGUGAACUUGGCAGCAAGAAGCCUGUGCACCCCAAUGAUCAUGUUAAUAAAAGC: 0.829 ratio
AAAGAACCUCUCUCUGAAGAAGAGGAAGAAGACAAUGAUGAUGUUGAACCCAUUUCUGAAUUUCGAUUUGUGCCCAGUGAUAAGUCAGCAUUGGAGGCGAUGUUCACUGCAAUGUGCGAG: 0.28 ratio

Sample 2 — target: CCND1, cyclin fold, Cln2 fusion (human); method: yeast growth competition, sequencing; medium: yeast; notes: strong parent motif; baseline: not given; direction: higher = stronger binding; quantity: normalised enrichment score
Starting sequence: INSM1 docking peptide (human); PKAIRKLHFEDEV
PKAIRKLHFEDSV [E12S]: 4.09
PKAIDKLHFEDEV [R5D]: 0.27
PNAIRKLHFEDEV [K2N]: 4.33
PKAIRKLHFEDDV [E12D]: 5.13
PKAIGKLHFEDEV [R5G]: 0.186
PKAIRKLQFEDEV [H8Q]: 5.36
PKIIRKLHFEDEV [A3I]: 1.05
PKAIRTLHFEDEV [K6T]: 2.26
PKAIRNLHFEDEV [K6N]: 1.85
PKAIRKLHFEDPV [E12P]: 4.07
PKHIRKLHFEDEV [A3H]: 0.67
PCAIRKLHFEDEV [K2C]: 5.07
PKAIRKLHFEDNV [E12N]: 3.84
PKAIRKLYFEDEV [H8Y]: 4.83
PKAIRKLHFIDEV [E10I]: 1.36
PKAIMKLHFEDEV [R5M]: 1.82
PKAIRKLHFEDVV [E12V]: 3.93
PKPIRKLHFEDEV [A3P]: 2.59

Sample 3 — method: DHFR PCA, deep sequencing; medium: yeast; added: (+)-ABA 0.39 µM; baseline: wild-type fitted maximum; direction: higher = stronger binding; quantity: relative binding score
Target: ABI1, truncated, D143A, DHFR fusion (Arabidopsis thaliana)
Notes: methotrexate growth selection, single substitutions
Starting sequence: PYL1, truncated, DHFR fusion (Arabidopsis thaliana); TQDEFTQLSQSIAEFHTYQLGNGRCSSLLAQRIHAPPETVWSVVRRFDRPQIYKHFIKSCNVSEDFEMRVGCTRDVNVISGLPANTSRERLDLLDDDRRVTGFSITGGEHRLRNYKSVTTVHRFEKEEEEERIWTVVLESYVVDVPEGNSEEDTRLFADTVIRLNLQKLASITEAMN; partner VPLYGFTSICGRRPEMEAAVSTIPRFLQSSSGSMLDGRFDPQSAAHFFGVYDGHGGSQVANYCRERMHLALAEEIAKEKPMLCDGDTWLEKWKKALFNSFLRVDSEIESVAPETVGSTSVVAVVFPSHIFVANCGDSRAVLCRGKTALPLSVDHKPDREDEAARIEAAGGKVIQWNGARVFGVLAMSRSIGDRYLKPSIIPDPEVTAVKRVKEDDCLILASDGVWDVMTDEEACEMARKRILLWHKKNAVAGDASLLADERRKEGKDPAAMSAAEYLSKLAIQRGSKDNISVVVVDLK
E125P: 48.9%
E129G: 70.2%
E130I: 30.6%
A158Y: -1.99%
N114Y: 4.57%
K58H: 12.8%
V78I: 58.5%
Q31N: -12%
E38V: -2.71%
R88H: 62.8%
N61W: 28.2%
I105E: 0.175%
K126S: 75.9%
Q7I: 32.7%
V76M: 6.2%
E151T: 27.3%
K54I: -8.59%

Sample 4 — method: protein-binding microarray; form: double-stranded DNA, one strand shown; medium: in vitro; tested at: 2540 nM top; notes: 60-bp whole probe; added: salmon DNA 0.4 mg/ml; baseline: random background probes; direction: higher = stronger binding; quantity: fitted relative affinity; all sequences stand within: GCCTAGCAC … GTCTTGATTCGCTTGACGCTGCTG
Target: Interferon regulatory factor 3, full length, phosphomimetic (IRF3, Homo sapiens, UniProt Q14653, residues 1-427, S386D/S396D/S398D/S402D/T404D/S405D)
Construct (chain): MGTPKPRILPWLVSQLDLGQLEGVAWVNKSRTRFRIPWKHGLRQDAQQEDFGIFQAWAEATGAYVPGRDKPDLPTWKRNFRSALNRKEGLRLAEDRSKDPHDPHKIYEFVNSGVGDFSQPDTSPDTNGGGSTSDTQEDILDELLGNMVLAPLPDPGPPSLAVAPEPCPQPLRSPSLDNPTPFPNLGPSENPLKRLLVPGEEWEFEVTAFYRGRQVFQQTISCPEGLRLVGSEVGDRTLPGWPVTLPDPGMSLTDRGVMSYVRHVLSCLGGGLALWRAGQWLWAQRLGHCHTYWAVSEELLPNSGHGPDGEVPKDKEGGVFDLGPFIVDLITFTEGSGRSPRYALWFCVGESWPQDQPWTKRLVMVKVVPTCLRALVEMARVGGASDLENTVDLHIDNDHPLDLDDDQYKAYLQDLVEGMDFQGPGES
GACGGACTAGGGTTTCGGGACGTGCTA: 0.821 z-score
TGAGGTATCCTTCTCCTTTAGTGCTAG: 7.06 z-score
TCCCACAGTCGAAAGTCTGCGTGCTAG: -0.192 z-score
GCCATTGTGGATCTTGCAGAGTGCTAG: -0.144 z-score
CTTTAACTCATTCTCTGCTTGTGCTAG: 1.48 z-score
GCCGGTCTCCTTTTCCTGACGTGCTAG: 5.46 z-score
TTAGATATCGGGTATCGATTCGTGCTA: 0.701 z-score
GACGGTACCGACTTTCGGGACGTGCTA: 1.63 z-score
TTTCGTATCTTCATTGTCATGTGCTAG: 5.89 z-score
TTACGTATCGACTATCGGTTAGTGCTA: 0.869 z-score
TATGTTCCCTATATAAGGCGGTGCTAG: 2.37 z-score
TCACTTTCACTTCTCCCACTGTGCTAG: 6.87 z-score
CTTTCTTTATGCACTCTTTACGTGCTA: 5.21 z-score
TTAGATATCAGTTTTGATTAGTGCTAG: 2.22 z-score
TTAGATGTCAGACTGGATTAGTGCTAG: -0.0555 z-score
TTAGGTATCGGCCTGGGTTAGTGCTAG: 0.0402 z-score

Sample 5 — target: CEBPB, bZIP domain (human); method: DHFR protein complementation; medium: yeast; baseline: wild-type JUN-FOS pair; direction: higher = stronger binding; quantity: binding fitness
Notes: single substitutions, most at no-binding floor
Starting sequence: JUN, bZIP domain (human); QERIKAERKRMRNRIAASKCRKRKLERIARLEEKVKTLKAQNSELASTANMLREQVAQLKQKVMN; partner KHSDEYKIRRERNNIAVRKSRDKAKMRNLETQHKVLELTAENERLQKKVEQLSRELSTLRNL
K34L: -1.15 natural log
Q41A: -1.35 natural log
E32T: -1.38 natural log
T37D: -0.982 natural log
I28H: -1.26 natural log
Q55R: -1.42 natural log
K36A: -1.2 natural log
E44G: -1.47 natural log
N42A: -1.5 natural log
A49M: -1.36 natural log
K39A: -1.38 natural log
R53W: -1.22 natural log
V56L: -1.35 natural log
M51T: -1.24 natural log
A40Q: -1.41 natural log
K39P: -1.52 natural log

Sample 6 — method: RNA Bind-n-Seq; form: RNA; medium: in vitro; tested at: 365 nM; baseline: no-protein control; direction: higher = stronger binding; quantity: RBNS enrichment (R)
Target: RNA binding protein fox-1 homolog 2, RRM domain, GST-SBP tag (RBFOX2, Homo sapiens, UniProt O43251-10, residues 100-194)
Notes: natural RNA segment, single round, ends assumed
All sequences stand within: GGGAGUUCUACAGUCCGACGAUC … UGGAAUUCUCGGGUGCCAA
Residues (chain): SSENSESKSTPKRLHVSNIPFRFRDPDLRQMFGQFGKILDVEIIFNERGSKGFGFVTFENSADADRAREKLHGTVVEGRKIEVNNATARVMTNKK
AAACCCGUGAAGCUCACCCAAGUGGAACACAGGGCUGCUUUCGAGUGGAAUGAAGAGGGGGCAGGAAGCAGCCCCAGCCCAGGCCUCCAGCCCGUCCGCCUCACCUUCCC: 0.423
AGGGUGAAGGGGAGAGGAGGAGCUAGUAUUAGCCAAAGUGAUAGAAAACCUGAUUUUCAUCUCGUACUACCAAGCUUUACAACAUUGAAAGUGGCCUAGUAACUCUGAGU: 0.555
UGAUUUUUUUGGUUAAAACUUUUUCAUUGAUCUGAAUUGCUUAAAUUGCAUAUAUUGUAAAAUAGAGUCAGAUGUAUAUUUUAAAAUAAUUUCAGCUGACUUUCCUCUGA: 0.695
GCUCUUUCAAUUGAGGUGGUUCUCAUUCUUGCUUCUCUGUGUCCCCCAUAGGCUAAUACCCCUGGCACUGAUGGGCCCUGGGAAAUGUACAGUAGACCAGUUGCUCUUUG: 0.375
AGCUUGUGUGUUCUUUUGUUAAUGUGUAGAGUUCUCCUUUCUCGAAAUUGCCAGUGUGUACUUGGCUUAACUCAAGAACAGUUUCUUCUGGAUUCCUUAUUUGAUUUAUU: 0.864
GCACCCCUGUAGUCUCAGAACUCUAGAAGGUAAGGCAGGGAGGGUAGCCUGAGCCCAAGGCCAGCCUGGGCUACCUAACAAGACCCUGUCUCUAAAAGAAAAAAGAAUUA: 0.527
CCUCUGUGUGUGAGGCCCUUCAUCUAAGUGAUUGUGUAUUCAGUUUAAUUCUCAUUAUAUUUCUAUACUGAAAGAAGAUUUUUAACGAAGGGAAAAACAACAGCAAUAAC: 0.555
AAAUAGGGAUUAAAUGUCUAGGCUUCCAUUUAAAAUUAUAUGAAUGGUUUGGGAUCUUUUUGCACUGAGCAAUUUUAUUUCAGGCUUCCAGCUGUCCCUGUGAGUUAUCC: 1.03
UAGCCCCAUCUGGACCAUCCACCCACAUCUGCUUGUCAAUCUGGCUGCAAACCUAAGCAGGCAGGUAGUCUAUGGACUUCCAAACUUAGAAGGGUCUGAUAUUAGGUUUA: 0.26
UUUAAGUAAAAAUAUGCUGUUUUAAUAUUUAAUUUAGUAGAAUUAACAAAAACUUUUUAAUAGUCAAACUGAAUUACCUUGUUUUAUAAAUGUUAAAUUGUUUAUAUUUA: 1.53
GAACCUUAGCUGAAUAUAGUGUGUGUCUCAAGAGGAAGUCAGGGUACUAGCUCAGUGCUCAAUCUCCAGGUACUAUAUAUACAUUUGCCCGUUUUAUCUCUAAUGUGAAA: 0.24
AAAGCAAUUACAUGCAUGUUGCAUUUUUUUCAUCUGUUGUACAUAGUUGUAUUUUUAUCUAAUGCCAUUUUAGAAUUUUCUAAGGGAAUUUAAUGAAUUCACAUGAAAGG: 8.46

Single results of other studies
PhoQ, residues 284 288 289 292 302 303 AGHLVA
fold induction (PhoP, residues 12 14 15 18 19 NQAHL (Escherichia coli, UniProt P23836); Sort-seq, measured: YFP reporter; E. coli; PhoQ-PhoP variant library, added: 10 µM Mg2+; baseline: high Mg2+ state, higher = stronger signaling): 0.794

Some of these lines once more (sample 4):
TTTCGTATCTTCATTGTCATGTGCTAG: 5.89 z-score
GCCGGTCTCCTTTTCCTGACGTGCTAG: 5.46 z-score
TGAGGTATCCTTCTCCTTTAGTGCTAG: 7.06 z-score
TCCCACAGTCGAAAGTCTGCGTGCTAG: -0.192 z-score
TTAGATATCAGTTTTGATTAGTGCTAG: 2.22 z-score
GACGGACTAGGGTTTCGGGACGTGCTA: 0.821 z-score
GACGGTACCGACTTTCGGGACGTGCTA: 1.63 z-score
TTAGGTATCGGCCTGGGTTAGTGCTAG: 0.0402 z-score
CTTTAACTCATTCTCTGCTTGTGCTAG: 1.48 z-score
